Measured values from different studies.
Numbered parts are unrelated; each lists some results of a single study.
Chain of UniProt P07947 (whole entry, looked up): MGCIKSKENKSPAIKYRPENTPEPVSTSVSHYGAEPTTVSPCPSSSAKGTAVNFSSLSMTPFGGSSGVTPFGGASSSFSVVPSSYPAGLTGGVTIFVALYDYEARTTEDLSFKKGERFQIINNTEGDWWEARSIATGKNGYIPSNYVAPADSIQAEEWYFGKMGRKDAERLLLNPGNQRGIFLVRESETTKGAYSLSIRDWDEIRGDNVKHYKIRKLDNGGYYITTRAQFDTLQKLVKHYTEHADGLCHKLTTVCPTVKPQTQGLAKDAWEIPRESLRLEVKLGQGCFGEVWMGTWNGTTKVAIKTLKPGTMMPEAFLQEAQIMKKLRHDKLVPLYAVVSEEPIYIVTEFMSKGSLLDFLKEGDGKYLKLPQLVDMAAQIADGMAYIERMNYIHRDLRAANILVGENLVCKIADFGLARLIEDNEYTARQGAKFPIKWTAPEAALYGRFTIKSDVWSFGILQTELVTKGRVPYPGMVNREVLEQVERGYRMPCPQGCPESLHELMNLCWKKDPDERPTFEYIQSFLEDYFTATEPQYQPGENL
Chain of UniProt Q9UBS0 (whole entry, looked up): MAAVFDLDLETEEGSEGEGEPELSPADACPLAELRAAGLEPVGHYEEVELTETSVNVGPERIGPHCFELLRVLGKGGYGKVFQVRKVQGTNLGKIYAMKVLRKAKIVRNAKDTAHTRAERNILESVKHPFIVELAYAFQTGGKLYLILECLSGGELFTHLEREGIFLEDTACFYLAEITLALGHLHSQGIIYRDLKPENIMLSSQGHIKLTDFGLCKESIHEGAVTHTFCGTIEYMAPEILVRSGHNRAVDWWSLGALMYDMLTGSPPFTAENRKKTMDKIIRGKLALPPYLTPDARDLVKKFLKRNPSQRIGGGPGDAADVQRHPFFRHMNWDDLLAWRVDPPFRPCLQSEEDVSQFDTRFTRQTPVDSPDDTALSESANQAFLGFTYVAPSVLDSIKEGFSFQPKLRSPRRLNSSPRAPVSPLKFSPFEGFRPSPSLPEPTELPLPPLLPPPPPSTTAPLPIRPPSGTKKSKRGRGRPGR
Chain of UniProt Q14012 (whole entry, looked up): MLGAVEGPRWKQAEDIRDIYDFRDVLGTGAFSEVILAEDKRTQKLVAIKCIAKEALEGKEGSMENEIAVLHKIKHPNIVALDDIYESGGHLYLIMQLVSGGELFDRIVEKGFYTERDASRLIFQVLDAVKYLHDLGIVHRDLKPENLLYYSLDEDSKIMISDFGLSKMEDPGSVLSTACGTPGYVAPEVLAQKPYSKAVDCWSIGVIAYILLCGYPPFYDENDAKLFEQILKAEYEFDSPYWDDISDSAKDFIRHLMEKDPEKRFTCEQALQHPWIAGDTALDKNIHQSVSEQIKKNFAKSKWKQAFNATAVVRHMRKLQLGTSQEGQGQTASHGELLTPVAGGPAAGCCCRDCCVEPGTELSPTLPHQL
Chain of UniProt Q8IZF3 (whole entry, looked up): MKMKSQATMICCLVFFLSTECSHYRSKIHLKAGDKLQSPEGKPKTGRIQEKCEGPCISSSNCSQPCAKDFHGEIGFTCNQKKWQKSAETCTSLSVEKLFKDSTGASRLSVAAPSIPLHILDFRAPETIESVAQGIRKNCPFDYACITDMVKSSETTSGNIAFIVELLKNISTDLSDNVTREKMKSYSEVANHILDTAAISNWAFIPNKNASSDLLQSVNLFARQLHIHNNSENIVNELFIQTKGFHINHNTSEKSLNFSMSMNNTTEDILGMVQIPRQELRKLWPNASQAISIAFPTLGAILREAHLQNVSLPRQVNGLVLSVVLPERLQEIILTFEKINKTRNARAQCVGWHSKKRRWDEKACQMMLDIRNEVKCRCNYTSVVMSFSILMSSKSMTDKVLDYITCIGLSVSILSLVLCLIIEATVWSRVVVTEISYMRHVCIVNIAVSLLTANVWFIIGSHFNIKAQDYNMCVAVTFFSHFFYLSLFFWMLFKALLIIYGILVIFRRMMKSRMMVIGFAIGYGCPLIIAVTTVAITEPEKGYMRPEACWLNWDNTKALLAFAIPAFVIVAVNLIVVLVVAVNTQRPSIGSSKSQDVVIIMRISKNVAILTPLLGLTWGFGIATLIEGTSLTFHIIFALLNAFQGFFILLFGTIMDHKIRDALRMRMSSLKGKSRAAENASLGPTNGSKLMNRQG
Chain of UniProt Q9P286 (whole entry, looked up): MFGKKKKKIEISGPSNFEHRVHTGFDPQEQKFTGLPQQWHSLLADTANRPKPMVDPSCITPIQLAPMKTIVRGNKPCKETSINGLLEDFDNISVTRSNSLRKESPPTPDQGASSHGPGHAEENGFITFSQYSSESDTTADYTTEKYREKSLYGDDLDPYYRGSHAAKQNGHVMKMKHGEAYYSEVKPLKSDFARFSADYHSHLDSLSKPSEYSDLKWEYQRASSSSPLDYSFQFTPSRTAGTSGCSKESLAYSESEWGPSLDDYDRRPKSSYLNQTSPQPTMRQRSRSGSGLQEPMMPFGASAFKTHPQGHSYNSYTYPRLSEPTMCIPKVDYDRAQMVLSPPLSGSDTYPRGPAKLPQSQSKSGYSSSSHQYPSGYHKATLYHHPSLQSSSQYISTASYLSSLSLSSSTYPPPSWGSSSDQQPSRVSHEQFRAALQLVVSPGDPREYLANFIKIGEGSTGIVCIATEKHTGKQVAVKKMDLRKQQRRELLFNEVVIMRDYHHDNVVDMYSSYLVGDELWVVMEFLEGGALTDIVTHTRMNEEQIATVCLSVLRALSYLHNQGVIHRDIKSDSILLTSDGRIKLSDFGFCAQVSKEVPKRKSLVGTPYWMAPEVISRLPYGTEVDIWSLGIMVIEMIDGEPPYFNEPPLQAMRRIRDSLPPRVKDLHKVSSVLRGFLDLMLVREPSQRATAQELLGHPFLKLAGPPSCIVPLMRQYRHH
Chain of UniProt Q14680 (whole entry, looked up): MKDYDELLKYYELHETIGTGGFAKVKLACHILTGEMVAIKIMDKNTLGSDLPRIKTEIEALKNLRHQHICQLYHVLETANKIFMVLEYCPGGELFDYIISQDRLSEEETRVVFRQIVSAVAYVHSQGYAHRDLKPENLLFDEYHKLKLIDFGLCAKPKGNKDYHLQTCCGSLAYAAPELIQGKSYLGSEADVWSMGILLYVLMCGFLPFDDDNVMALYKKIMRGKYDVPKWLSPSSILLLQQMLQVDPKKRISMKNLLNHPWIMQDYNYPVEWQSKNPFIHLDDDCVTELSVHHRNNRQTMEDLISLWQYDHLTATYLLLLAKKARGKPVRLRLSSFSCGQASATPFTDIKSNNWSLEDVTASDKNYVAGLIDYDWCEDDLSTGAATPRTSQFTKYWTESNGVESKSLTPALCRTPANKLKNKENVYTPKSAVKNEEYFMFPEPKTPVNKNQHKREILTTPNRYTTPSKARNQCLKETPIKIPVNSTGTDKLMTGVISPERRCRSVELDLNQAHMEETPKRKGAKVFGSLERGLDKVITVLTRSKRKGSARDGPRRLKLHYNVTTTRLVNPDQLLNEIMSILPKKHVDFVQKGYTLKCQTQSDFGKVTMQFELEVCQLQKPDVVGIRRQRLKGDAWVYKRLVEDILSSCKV
Chain of UniProt P54760 (whole entry, looked up): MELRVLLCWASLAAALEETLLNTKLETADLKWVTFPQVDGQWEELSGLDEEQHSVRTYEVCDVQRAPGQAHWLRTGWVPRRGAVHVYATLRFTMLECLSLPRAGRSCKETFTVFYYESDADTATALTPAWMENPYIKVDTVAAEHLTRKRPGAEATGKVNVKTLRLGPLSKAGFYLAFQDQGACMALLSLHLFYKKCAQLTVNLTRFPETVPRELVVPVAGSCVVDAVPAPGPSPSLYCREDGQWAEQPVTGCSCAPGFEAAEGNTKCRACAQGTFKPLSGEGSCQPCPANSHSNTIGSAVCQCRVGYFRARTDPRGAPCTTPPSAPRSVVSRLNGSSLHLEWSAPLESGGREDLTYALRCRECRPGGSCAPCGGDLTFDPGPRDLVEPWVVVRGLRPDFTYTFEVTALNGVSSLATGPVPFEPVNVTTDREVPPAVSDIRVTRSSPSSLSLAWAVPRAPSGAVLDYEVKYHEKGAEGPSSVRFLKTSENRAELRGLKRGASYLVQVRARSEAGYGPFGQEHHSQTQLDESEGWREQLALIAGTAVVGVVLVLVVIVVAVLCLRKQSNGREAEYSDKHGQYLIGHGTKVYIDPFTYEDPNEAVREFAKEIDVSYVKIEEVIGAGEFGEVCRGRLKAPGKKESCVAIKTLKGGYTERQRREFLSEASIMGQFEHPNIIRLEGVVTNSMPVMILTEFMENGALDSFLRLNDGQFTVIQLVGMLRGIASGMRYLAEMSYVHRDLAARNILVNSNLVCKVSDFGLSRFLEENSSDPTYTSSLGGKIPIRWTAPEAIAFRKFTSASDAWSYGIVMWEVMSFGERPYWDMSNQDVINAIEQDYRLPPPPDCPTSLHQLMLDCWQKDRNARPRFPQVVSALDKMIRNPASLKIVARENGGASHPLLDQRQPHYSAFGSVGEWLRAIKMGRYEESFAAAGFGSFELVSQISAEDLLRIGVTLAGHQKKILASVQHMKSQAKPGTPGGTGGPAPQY
Chain of UniProt O00141 (whole entry, looked up): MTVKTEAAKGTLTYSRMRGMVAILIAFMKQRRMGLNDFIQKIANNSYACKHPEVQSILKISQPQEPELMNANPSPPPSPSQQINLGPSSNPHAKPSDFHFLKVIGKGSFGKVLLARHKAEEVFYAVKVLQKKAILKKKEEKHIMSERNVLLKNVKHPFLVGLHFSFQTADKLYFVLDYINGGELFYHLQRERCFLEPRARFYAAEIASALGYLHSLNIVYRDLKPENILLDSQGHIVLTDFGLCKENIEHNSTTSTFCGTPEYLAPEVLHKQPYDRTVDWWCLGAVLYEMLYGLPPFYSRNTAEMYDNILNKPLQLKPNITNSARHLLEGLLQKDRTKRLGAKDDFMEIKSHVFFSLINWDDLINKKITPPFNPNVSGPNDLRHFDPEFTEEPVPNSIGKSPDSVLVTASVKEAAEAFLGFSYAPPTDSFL

Series 1 — SMILES: CCN(c1nc(N)c(C(=O)N=C(N)N)nc1Cl)C(C)C; observed: β-arrestin recruitment; action: agonist; method: PRESTO-Tango; tested at: 10 µM; relative to: untreated; measurement: fold over basal
C5a anaphylatoxin chemotactic receptor 1 (C5AR1, Homo sapiens, UniProt P21730): 0.95
Oxytocin receptor (OXTR, Homo sapiens, UniProt P30559): 0.84
Probable G-protein coupled receptor 21 (GPR21, Homo sapiens, UniProt Q99679): 1.07
Adhesion G protein-coupled receptor A3 (ADGRA3, Homo sapiens, UniProt Q8IWK6): 0.9
Melanocortin receptor 5 (MC5R, Homo sapiens, UniProt P33032): 1.21
C-X-C chemokine receptor type 2 (CXCR2, Homo sapiens, UniProt P25025): 1.1
Mas-related G-protein coupled receptor member E (MRGPRE, Homo sapiens, UniProt Q86SM8): 1.05
Orexin/Hypocretin receptor type 1 (HCRTR1, Homo sapiens, UniProt O43613): 0.85 fold
Adhesion G protein-coupled receptor F4 (ADGRF4, Homo sapiens, UniProt Q8IZF3): 1
Neuromedin-K receptor (TACR3, Homo sapiens, UniProt P29371): 1.1 fold
5-hydroxytryptamine receptor 1A (HTR1A, Homo sapiens, UniProt P08908): 0.63

Series 2 — Structure (SMILES): O=C1NC(=O)/C(=C/c2ccc3nccnc3c2)S1; observed: enzyme activity; action: inhibitor; tested at: 0.5 µM; relative to: control; measurement: remaining activity
Serine/threonine-protein kinase SIK2 (SIK2, Homo sapiens, UniProt Q9H0K1): 102%
Mitogen-activated protein kinase kinase kinase 20 (MAP3K20, Homo sapiens, UniProt Q9NYL2): 93.6%
Casein kinase I isoform delta (CSNK1D, Homo sapiens, UniProt P48730): 96.3%
Muscle, skeletal receptor tyrosine-protein kinase (MUSK, Homo sapiens, UniProt O15146): 16.2%
Serine/threonine-protein kinase pim-1 (PIM1, Homo sapiens, UniProt P11309): 61.7%
Dual specificity protein kinase CLK1 (CLK1, Homo sapiens, UniProt P49759): 80.1%
Cyclin-dependent kinase 2, with cyclin E (CDK2, Homo sapiens, UniProt P24941): 91.8%
Calcium/calmodulin-dependent protein kinase type 1 (CAMK1, Homo sapiens, UniProt Q14012): 95.7%
Dual specificity tyrosine-phosphorylation-regulated kinase 1A (DYRK1A, Homo sapiens, UniProt Q13627): 21.8%
Serine/threonine-protein kinase PAK 1 (PAK1, Homo sapiens, UniProt Q13153): 96%
Maternal embryonic leucine zipper kinase (MELK, Homo sapiens, UniProt Q14680): 90.7%
SRSF protein kinase 1 (SRPK1, Homo sapiens, UniProt Q96SB4): 110%
Ephrin type-A receptor 2 (EPHA2, Homo sapiens, UniProt P29317): 99.9%
Serine/threonine-protein kinase PAK 4 (PAK4, Homo sapiens, UniProt O96013): 88.5%
Ribosomal protein S6 kinase beta-2 (RPS6KB2, Homo sapiens, UniProt Q9UBS0): 94.7%
Protein kinase C theta type (PRKCQ, Homo sapiens, UniProt Q04759): 92.8%
Calcium/calmodulin-dependent protein kinase kinase 1 (CAMKK1, Homo sapiens, UniProt Q8N5S9): 81.8%
Tyrosine-protein kinase receptor TYRO3 (TYRO3, Homo sapiens, UniProt Q06418): 99.1%
Serine/threonine-protein kinase Sgk2 (SGK2, Homo sapiens, UniProt Q9HBY8): 99.3%
Protein kinase C zeta type (PRKCZ, Homo sapiens, UniProt Q05513): 103%
Activin receptor type-1-like (ACVRL1, Homo sapiens, UniProt P37023): 107%
Ephrin type-A receptor 6 (EPHA6, Homo sapiens, UniProt Q9UF33): 82.4%
Dual specificity protein kinase CLK2 (CLK2, Homo sapiens, UniProt P49760): 74%
Vascular endothelial growth factor receptor 1 (FLT1, Homo sapiens, UniProt P17948): 87.5%
Tyrosine-protein kinase Yes (YES1, Homo sapiens, UniProt P07947): 89.3%

Series 3 — action: inhibitor; tested at: 10 µM; relative to: control; measurement: remaining activity
Target: Diamine acetyltransferase 1 (Homo sapiens, UniProt P21673)
Construct (P21673 1-171): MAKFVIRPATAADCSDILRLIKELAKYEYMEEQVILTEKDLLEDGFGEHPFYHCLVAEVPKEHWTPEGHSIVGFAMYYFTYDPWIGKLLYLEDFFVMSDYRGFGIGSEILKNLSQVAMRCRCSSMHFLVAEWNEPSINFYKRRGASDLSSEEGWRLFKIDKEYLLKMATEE
CCCCCC/C=C\CCCCCCCc1cccc(O)c1C(=O)O: 94.8%
O=c1c(O)c(-c2ccc(O)c(O)c2)oc2cc(O)ccc12: 92.1%
COc1ccc(C=O)c(O)c1: 95.8%
C/C(=C\CO)CCC[C@H](C)CCC[C@H](C)CCCC(C)C: 98.5%
CCCCCCCCCCCCCCCc1cccc(O)c1C(=O)O: 112%
O=c1cc(-c2ccc(O)cc2)oc2cc(O)cc(O)c12: 88.5%
C=CCc1cc(OC)c(O[C@@H](C)[C@H](O)c2ccc(O)c(OC)c2)c(OC)c1: 92.3%
COc1ccc(-c2oc3cc(OC)c(OC)c(O)c3c(=O)c2OC)cc1OC: 96%
CCCCCCCCCCCCCC[C@@H](O)[C@@H](O)[C@@H](N)CO: 93.8%
CC1(C)CC[C@]2(C(=O)O[C@@H]3O[C@H](CO)[C@@H](O)[C@H](O)[C@H]3O)CC[C@]3(C)C(=CC[C@@H]4[C@@]5(C)CC[C@H](O[C@@H]6O[C@H](C(=O)O)[C@@H](O)[C@H](O)[C@H]6O)C(C)(C)[C@@H]5CC[C@]43C)[C@@H]2C1: 97.3%

Series 4 — method: competition with immobilised ligand; tested at: 0.1 µM; measurement: remaining binding
Compound: CC(C)CC(=O)N1CCc2nc(-c3ccc(Br)cc3)nc(N(C)Cc3ccccc3)c2C1
Tyrosine-protein kinase Lyn (LYN, Homo sapiens, UniProt P07948); cell-free assay: 88%
Ephrin type-B receptor 4 (EPHB4, Homo sapiens, UniProt P54760); cell-free assay: 100%
Phosphatidylinositol 4,5-bisphosphate 3-kinase catalytic subunit alpha isoform (PIK3CA, Homo sapiens, UniProt P42336, Q546K); cell-free assay: 97%
Serine/threonine-protein kinase Sgk1 (SGK1, Homo sapiens, UniProt O00141); cell-free assay: 99%
Serine/threonine-protein kinase PAK 5 (PAK5, Homo sapiens, UniProt Q9P286); cell-free assay: 100%
Tyrosine-protein kinase Yes (YES1, Homo sapiens, UniProt P07947); cell-free assay: 100%
Myosin-IIIa (MYO3A, Homo sapiens, UniProt Q8NEV4); binding: 96%
Serine/threonine-protein kinase 26 (STK26, Homo sapiens, UniProt Q9P289); cell-free assay: 100%
Serine/threonine-protein kinase 17A (STK17A, Homo sapiens, UniProt Q9UEE5); cell-free assay: 96%
High affinity nerve growth factor receptor (NTRK1, Homo sapiens, UniProt P04629); cell-free assay: 100%
NUAK family SNF1-like kinase 1 (NUAK1, Homo sapiens, UniProt O60285); cell-free assay: 100%
